# Results of several laboratories.
# A part holds a random share of what one study measured. Substitutions count along the parent as printed.
# Sequence of UniProt P49459 (whole entry, looked up): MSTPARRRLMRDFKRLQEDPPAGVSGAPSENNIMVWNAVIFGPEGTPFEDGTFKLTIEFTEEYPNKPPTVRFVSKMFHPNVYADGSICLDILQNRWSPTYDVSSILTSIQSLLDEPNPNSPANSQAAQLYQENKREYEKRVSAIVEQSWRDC
# Sequence of UniProt P61077 (whole entry, looked up): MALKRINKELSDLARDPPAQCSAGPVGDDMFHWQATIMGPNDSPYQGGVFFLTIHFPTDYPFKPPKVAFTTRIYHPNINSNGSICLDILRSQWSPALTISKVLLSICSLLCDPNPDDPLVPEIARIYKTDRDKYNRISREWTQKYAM
# Sequence of UniProt Q96B02 (whole entry, looked up): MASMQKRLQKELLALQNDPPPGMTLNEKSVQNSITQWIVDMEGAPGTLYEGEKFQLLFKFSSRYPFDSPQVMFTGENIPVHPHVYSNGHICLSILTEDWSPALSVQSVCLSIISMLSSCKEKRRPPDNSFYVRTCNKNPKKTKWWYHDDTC

# Block 1 — method: RNA Bind-n-Seq; form: RNA; sample: in vitro; concentration: not given; setting: RNA with constant flanks, ends assumed; relative to: input RNA pool; reading: higher = stronger binding
# Target: RING finger protein unkempt homolog, zinc fingers 1-6, GST-SBP tag (UNK, Homo sapiens, UniProt Q9C0B0, residues 30-357)
# Constant ends, left off below: GGGAGUUCUACAGUCCGACGAUC … CAACAGAGGAUUGAGCAUCA
# Target sequence (chain): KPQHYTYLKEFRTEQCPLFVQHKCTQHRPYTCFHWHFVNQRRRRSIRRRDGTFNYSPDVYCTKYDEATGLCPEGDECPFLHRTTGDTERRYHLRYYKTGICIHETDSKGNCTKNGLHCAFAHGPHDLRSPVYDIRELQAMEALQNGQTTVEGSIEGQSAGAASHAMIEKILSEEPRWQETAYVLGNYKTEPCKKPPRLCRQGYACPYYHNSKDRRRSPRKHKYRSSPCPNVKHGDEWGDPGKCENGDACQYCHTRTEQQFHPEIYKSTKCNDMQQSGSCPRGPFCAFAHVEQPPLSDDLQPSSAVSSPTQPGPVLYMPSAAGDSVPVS
Oligonucleotide,bound/input enrichment [ratio]
CCCCCUUUCAGGUGUGGUAUCAGUACGCUUUGAAGAAGAUGAAGACAGGAACUUGUGUUUAACCGCAUAUCCAUUAAAAGGGGACCAUGGAACUGUGGAUAUAGUAGACAAUUCGGACUG,0.582
AACAUUAGAAGACAGUGGGAAGAUGAUCCUCCAAAUGUACACAUUAUUGGAAAUCUACCUUUCCGUGUUUCAACUCCACUGAUUAUCAAGUGGCUUGAAAAUAUUUCUCUUAAAGAUGGC,0.133
UGGUCUUCAGAGAGCAACUAUCCUCCCCAGUACUUGAUUCUAAAGCUCGAAAGGCCUGCUACCGUUCAGAAUAUCACAUUUGGAAAAUAUGAGAAAACUCAUGUUUGCAAUUUGAAGAAA,0.11
CAGCAGUCAUCUCUCGGUAGGGAUUCACAGGGUCAUGGGCGUGACCUGUCUGCAGCAGGAACCGGCCUUCUUGCUGCUGCUACCCAGUCUUUAAGUAUGCCAGCAUCUCUUGGAAGGAUG,0.0631
AAGAAGUGCAAACAGGACAAUAGGAAGGAGGAGCAGGCAGCUUCCCCUGUUGCAGAAGAUGCCGGUGAUGUGGGUGUGAGCUCAGAUGAUGAGAAGAGAGCCCAGGCAGCAAGAGGAUCU,0.327
UGUUUUCAUGCCCGGCCUUUGUUCCUCCAUAAAUGUGUCCUUUAGUUUCAAACAGAUCUUUACCGUUCGUGCUUCAUAAGCCAAUUCUUAUUAUUAUUUUUGGGGGACUCUUCUUCAAAG,2.51
GAAGCUGACAAGUGGAGCACGCUGAGUGCUGAUAUUGAGGAGACCUUCAAAACUCAAGACACCGCUGUGAUUUCUGCAAAGCUGACCGGCAUGCAGAACAGCUUGAUGAUGCUUGUGGAU,0.145
AGUUUGGGAUUUGGCUCUUACAUCAGUGAAGUAAAAGAAGUCUUGCAAGAGUGUAAAACAGCCGCAUUAAAAAGAAGAAAGGCCAGUUCUCGUUUGGAAAACCUUGGCAUUCCUGAAGAA,0.177

# Block 2 — observed: peptide-MHC binding; form: peptide; concentration: concentration not given
# Target: HLA class I histocompatibility antigen, A alpha chain, allele A*25:01 (Homo sapiens, UniProt P04439)
Molecule,binding
KLWTSISCA,inactive
FGALFMWLL,inactive
RFNAIWFNH,inactive
ALYEENALK,inactive
LSDAARLFL,inactive

# Block 3 — target: CCNB2, cyclin fold, Cln2 fusion (human); method: yeast growth competition, sequencing; sample: yeast; setting: strong parent motif; relative to: not given; reading: higher = stronger binding; starting sequence: viral docking peptide; TSVRRALFTGGSD
Change,normalised enrichment score
TSVRRAEFTGGSD [L7E],0.15
TSVYRALFTGGSD [R4Y],0.138
TSVRRALFTGVSD [G11V],0.944
TSVHRALFTGGSD [R4H],-0.187
TSVRRALTTGGSD [F8T],-0.177
TAVRRALFTGGSD [S2A],0.41
TSVRRALFTGGFD [S12F],0.561
TSVRDALFTGGSD [R5D],-0.168
TSVFRALFTGGSD [R4F],0.185
TSVRRALFTGISD [G11I],0.318
TSVRRAFFTGGSD [L7F],-0.288
TSVRPALFTGGSD [R5P],-0.934
TSVRRAKFTGGSD [L7K],0.459
TSVRRAHFTGGSD [L7H],0.0919
TSVRRHLFTGGSD [A6H],0.574
TSVRRASFTGGSD [L7S],-0.43
TSVRRALFTGGGD [S12G],0.259
TSVRCALFTGGSD [R5C],0.183
TSVRRALFTGESD [G11E],1.19
TSVRYALFTGGSD [R5Y],-0.159
TSVRRALFTGRSD [G11R],0.5
TSARRALFTGGSD [V3A],0.45
TSVRKALLTGGSD [R5K F8L],0.347
TSVQRALFTGGSD [R4Q],0.168
TSSRRALFTGGSD [V3S],0.0605

# Block 4 — method: RNA Bind-n-Seq; form: RNA; sample: in vitro; concentration: 15 pmol; setting: 4-mer, random 30-nt RNA, single round; added: 3 µM RocA, 2 mM AMP-PNP; relative to: mean of 4-mers; reading: higher = stronger binding
# Target: Eukaryotic initiation factor 4A-I (EIF4A1, Homo sapiens, UniProt P60842, residues 1-406, full length assumed)
# Sequence of UniProt P60842 (whole entry, looked up): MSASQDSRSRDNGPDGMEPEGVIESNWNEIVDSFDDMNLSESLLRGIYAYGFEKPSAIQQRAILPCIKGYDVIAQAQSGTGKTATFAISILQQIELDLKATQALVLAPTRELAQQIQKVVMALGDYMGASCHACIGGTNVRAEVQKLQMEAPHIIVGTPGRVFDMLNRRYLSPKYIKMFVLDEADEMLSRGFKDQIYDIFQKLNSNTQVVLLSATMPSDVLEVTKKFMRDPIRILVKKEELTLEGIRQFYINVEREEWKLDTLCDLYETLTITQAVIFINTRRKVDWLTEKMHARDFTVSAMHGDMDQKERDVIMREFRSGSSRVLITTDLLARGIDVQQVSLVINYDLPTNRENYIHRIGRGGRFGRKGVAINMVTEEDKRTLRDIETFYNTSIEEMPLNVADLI
Oligonucleotide,4-mer enrichment Z-score
GAAU,1.59
CUCG,-0.897
CCCU,-1
AGUC,-0.654
CCUU,-1.1
ACUA,-0.501
UCUU,-0.801
GACG,0.0535

# Block 5 — Substance: RNF13 RING domain (UniProt O43567); method: yeast two-hybrid; sample: yeast; setting: mostly zero background; relative to: not given; reading: higher = stronger interaction
# Sequence of UniProt O43567 (whole entry, looked up): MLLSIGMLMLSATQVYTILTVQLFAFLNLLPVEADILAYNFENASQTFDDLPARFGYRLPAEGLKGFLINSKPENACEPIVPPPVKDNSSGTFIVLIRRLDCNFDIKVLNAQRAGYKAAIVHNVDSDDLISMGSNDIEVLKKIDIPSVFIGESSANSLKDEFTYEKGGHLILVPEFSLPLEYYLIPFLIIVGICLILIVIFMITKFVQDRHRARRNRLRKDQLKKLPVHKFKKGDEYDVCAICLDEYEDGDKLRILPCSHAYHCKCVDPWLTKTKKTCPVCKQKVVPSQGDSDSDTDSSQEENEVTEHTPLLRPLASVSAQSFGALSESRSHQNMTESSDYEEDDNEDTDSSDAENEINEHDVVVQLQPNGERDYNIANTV
target,lacZ reporter activity
UBE2A UBC core domain (UniProt P49459),0
UBE2W UBC core domain (UniProt Q96B02),0
UBE2D3 UBC core domain (UniProt P61077),12700

# Block 6 — method: protein-binding microarray; form: double-stranded DNA, one strand shown; sample: in vitro; concentration: 250 nM; setting: 60-bp whole probe; added: salmon DNA 0.4 mg/ml; relative to: random background probes; reading: higher = stronger binding; constant ends, left off below: GCCTAGCAC … GTCTTGATTCGCTTGACGCTGCTG
# Target: Interferon regulatory factor 5, full length, phosphomimetic (IRF5, Homo sapiens, UniProt Q13568-2, residues 1-514, K96S/S451D/S453D/S456D/S462D)
Oligonucleotide,log fluorescence [z-score]
GACGGTTTCCTACTGCAGACGTGCTAG,0.452
TTAGGACTGCTTTTCCTATAGTGCTAG,0.318
TTAGGACTGGACTTTAGGTTAGTGCTA,-0.0998
GACGATTTCGACTATCGGGACGTGCTA,3.97
TTAGATCTCAGACTTGATTAGTGCTAG,-0.119
GACGATTTCGGGACTGGGGACGTGCTA,1.87
TTAGAGATCGGGACTGGATTAGTGCTA,-0.335
GACGTTTTCCTTTTCCTGACGTGCTAG,1.47

# For quick reference, copied from above (block 3):
Change,normalised enrichment score
TSVRRALFTGGFD [S12F],0.561
TSVRCALFTGGSD [R5C],0.183
TSVRRALFTGISD [G11I],0.318
TSVRRASFTGGSD [L7S],-0.43
TSARRALFTGGSD [V3A],0.45
TSVQRALFTGGSD [R4Q],0.168
TSVRRAHFTGGSD [L7H],0.0919
TSVRRALFTGVSD [G11V],0.944
